Experimental data from different studies.
± gives the spread as reported.
Target: Tyrosine-protein kinase Blk (BLK, Homo sapiens, UniProt P51451)
Sequence of UniProt P51451 (whole entry, looked up): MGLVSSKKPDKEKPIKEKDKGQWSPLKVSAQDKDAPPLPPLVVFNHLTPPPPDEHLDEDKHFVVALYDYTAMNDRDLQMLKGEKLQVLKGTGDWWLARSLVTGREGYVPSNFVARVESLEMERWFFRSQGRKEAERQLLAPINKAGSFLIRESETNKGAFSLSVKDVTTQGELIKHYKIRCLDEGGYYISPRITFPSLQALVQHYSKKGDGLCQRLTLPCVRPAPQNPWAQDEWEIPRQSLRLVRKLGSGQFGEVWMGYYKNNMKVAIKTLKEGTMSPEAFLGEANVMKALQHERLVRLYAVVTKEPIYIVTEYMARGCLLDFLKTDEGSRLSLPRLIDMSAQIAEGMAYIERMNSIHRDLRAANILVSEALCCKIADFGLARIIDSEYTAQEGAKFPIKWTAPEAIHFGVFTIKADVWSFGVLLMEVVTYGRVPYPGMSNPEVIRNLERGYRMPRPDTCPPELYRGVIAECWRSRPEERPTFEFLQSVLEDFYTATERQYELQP

C=CC(=O)N1CCC[C@@H](n2nc(-c3ccc(Oc4ccccc4)cc3)c3c(N)ncnc32)C1 — remaining activity (kinase activity, inhibitor, HotSpot radiometric; 100 nM, added: ATP 10 µM): 0.6 ± 0.2%
[2H]c1cc(C)c(NC(=O)c2cnc(Nc3cc(N4CCCCC4)nc(C)n3)s2)c(Cl)c1 — inhibition (0.0001 µM): > 50%
C#Cc1cc(-c2cc(Nc3nc(N[C@@H](C)c4ccc(F)cn4)ncc3Cl)n[nH]2)ccc1C=O — inhibition (enzyme activity, inhibitor; 0.2 µM): 87.7%
O=C(NC1CCC1)c1ccc2nc(-c3cccc(NS(=O)(=O)NCCN4CCCCC4)c3)cn2c1 — remaining activity (enzyme activity; 10 µM): 84%
Cc1cc(Nc2cc(N3CCN(C)CC3)nc(Sc3ccc(NC(=O)C4CC4)cc3)n2)[nH]n1 — remaining activity (kinase activity, KinaseProfiler; 0.03 µM, species human; relative to: control): 98%
COc1ccc(F)cc1C(=O)NCc1ccc(-c2nn([C@@H](C)C(F)(F)F)c(N)c2C(N)=O)cc1 — remaining activity (kinase activity, inhibitor, HotSpot radiometric; 100 nM, added: ATP 10 µM): 81.7 ± 0.7%
C#Cc1cccc(Oc2ccc(-c3nn([C@@H]4CCCN(C(=O)C=C)C4)c4ncnc(N)c34)cc2)c1 — SILAC ratio (ABPP-SILAC; 1 µM, 1 h; relative to: DMSO): 20
[2H]c1cc(C)c(NC(=O)c2cnc(Nc3cc(N4CCC(O)CC4)nc(C)n3)s2)c(Cl)c1 — inhibition (0.001 µM): > 50%
C=CC(=O)N1CCC([C@@H]2CCNc3c(C(N)=O)c(-c4ccc(Oc5ccccc5)cc4)nn32)CC1 — remaining activity (kinase activity, inhibitor, HotSpot radiometric; 100 nM, added: ATP 10 µM): -0.4%
COc1cc(-c2cncc3c2CN(C)Cc2cc(N4CCNCC4)ccc2-3)cc(OC)c1OC — remaining activity (kinase activity; 1 µM, human enzyme, added: ATP 10 µM; relative to: DMSO control): 85%

A few entries again:
Cc1cc(Nc2cc(N3CCN(C)CC3)nc(Sc3ccc(NC(=O)C4CC4)cc3)n2)[nH]n1 — remaining activity (kinase activity, KinaseProfiler; 0.03 µM, species human; relative to: control): 98%
